{"data": "Results of several laboratories", "note": "A part holds a random share of what one study measured."}
{"data": "Series 1", "target": "Histone acetyltransferase KAT6A, winged helix 1, GST fusion (KAT6A, Homo sapiens, UniProt Q92794, residues 1-85)", "method": "protein binding microarray", "form": "double-stranded DNA, one strand shown", "medium": "in vitro", "tested at": "not given", "setting": "8-mer, flanks averaged, mean of 2 arrays, mostly near background", "baseline": "not given", "reading": "higher = stronger binding", "Construct (chain)": "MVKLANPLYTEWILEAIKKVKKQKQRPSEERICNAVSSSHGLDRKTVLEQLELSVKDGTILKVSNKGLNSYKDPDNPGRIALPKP"}
{"Strand": "AGACTTGC", "E-score": -0.106}
{"Strand": "GTTAACAA", "E-score": 0.0286}
{"Strand": "GCACATAC", "E-score": 0.0635}
{"Strand": "CCCGGGGA", "E-score": 0.224}
{"Strand": "CCCTTCAC", "E-score": -0.0258}
{"Strand": "AATCCCAG", "E-score": -0.257}
{"Strand": "CGACCGAA", "E-score": 0.0587}
{"Strand": "CGAGATAA", "E-score": -0.191}
{"Strand": "ATACTTAG", "E-score": -0.105}
{"Strand": "AAATAGAT", "E-score": -0.204}
{"Strand": "CGTAAAAG", "E-score": 0.171}
{"Strand": "ATGGGAGA", "E-score": -0.31}
{"Strand": "ATCGTACC", "E-score": -0.0786}
{"Strand": "GTGATCAA", "E-score": -0.173}
{"Strand": "CGGCTTAG", "E-score": 0.251}
{"Strand": "AGCATAGG", "E-score": -0.124}
{"Strand": "CATGAAAC", "E-score": 0.0329}
{"Strand": "AGCTATAT", "E-score": -0.102}
{"Strand": "GCAGGCGC", "E-score": 0.272}
{"Strand": "TCCTGACA", "E-score": -0.28}
{"Strand": "TATTCAGA", "E-score": -0.077}
{"Strand": "GAAGACCC", "E-score": -0.0978}
{"Strand": "AAGCGCTC", "E-score": 0.373}
{"data": "Series 2", "target": "RNA binding protein fox-1 homolog 2, RRM domain, GST-SBP tag (RBFOX2, Homo sapiens, UniProt O43251-10, residues 100-194)", "method": "RNA Bind-n-Seq", "form": "RNA", "medium": "in vitro", "tested at": "365 nM", "setting": "natural RNA segment, single round, ends assumed", "baseline": "no-protein control", "reading": "higher = stronger binding", "shared flanks, not repeated": "GGGAGUUCUACAGUCCGACGAUC … UGGAAUUCUCGGGUGCCAA", "Residues (chain)": "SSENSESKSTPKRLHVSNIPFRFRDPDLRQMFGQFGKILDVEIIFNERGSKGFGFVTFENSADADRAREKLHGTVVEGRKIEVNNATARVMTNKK"}
{"Strand": "UUUAUAUAGCACAGGCUCUAGAAUCAGAUUAAGUAGGUUCAAAUACCAGUUCUGCCAGUAACUGGUUUUAGAACCUUGGGCAAGUUAAAGAAUGUCUCCCAGCCUCAGUU", "RBNS enrichment (R)": 0.894}
{"Strand": "AAAUGGGGCCACCUCUUGCCAGCAGUAGCAGGGCUGCCCACGCCCCUUUCUCCCCAUGCCCCAUCCAGCACUUGGGCGACUCAUGCCUCUGCCUCAGUGGGCCUGUGGGA", "RBNS enrichment (R)": 0.383}
{"Strand": "GCAUGUCCAAGAUGACCCUUCUCCCCUACCUCUACCUAGCCACUGGCAGGGAGGGGAGACAGUGGUGAUAGCAGCAGCACUCUAGGCAUGGUGAACGCCUGGGACCAAGC", "RBNS enrichment (R)": 0.81}
{"Strand": "CCUUCUGUUGUUUAUCUUACCUGCAGAUAUUAAGAAUGUAUGCAUUAUGUAAAAUGCUCAAUUAUAUAUUUUUGUUGAGUUUUUUAAUUAAAGACUUGUAAAAAAAAAAA", "RBNS enrichment (R)": 2.38}
{"Strand": "GAUGGCGACAGGUUGGCUUAGGUGGAGGAAGAAAAGAGUUAUCAUUUUUAGACUAAAUCCACGCAUGAAAAAUAUUUCCUCAUUAUUCUUAUCUGCUUAGUGGAUUUUAU", "RBNS enrichment (R)": 4.98}
{"Strand": "UAUAUAGUGCCACUGUGCCUUCUCAUUUGUUUCUGAAUUUUCCACAUUUUAUUACAAAAUGUAGAAAUGCUAGCCCAUCUCCCCCUGCCCUAUACAUUUGCUCUUCCUAU", "RBNS enrichment (R)": 0.686}
{"Strand": "CUGUGGGCCACCACAGUCUGCACAGAAAGGUGGCACCCGGAGUGGUUGUGGCCCUCACUACCAAGCCACGGGCAGCCCAUUUCCAGUAGGAUGGCGGUUUGGAUUUCUUU", "RBNS enrichment (R)": 0.335}
{"Strand": "AGUCUUAAAAAAUUCUAUCAGAUGUGUCAUGAGACUGUUUCAGACUCAUGUCUGCUUAAAAUUCACGCUGACCUUGCAGAGCACCAGAGCAUGGGGCUGGCAUGCAGGAA", "RBNS enrichment (R)": 11.1}
{"Strand": "GAAACUUGCACAGCUAGCUAUGCAUCUACAUUUUGGUUUGGGGUUAGUUAUGAAAUGUUCUUAAUAUGACGUGUUCAAUAACUUCACAUAAACUUCCUGUUCUCCAAAAC", "RBNS enrichment (R)": 0.292}
{"Strand": "CUUGAAAAUUAAAUAUUGAUUUGUUUCACUAUUGAUGGGAAGAAGGGGAAUAAAGACUUGCAUAGGUUGUGUAGGUCAUUCCUCCGAAACAUAACAGGCUUCUCUUAGCU", "RBNS enrichment (R)": 0.212}
{"Strand": "UAAGAAAGGCGCUUUACAGAUAUAAAGAAAGGGAACAUGACAGCUGCCUGAUGGCUUAGCCUGGAGACCUCCUCAUUGCCAAAGUUGUUCCCAUGCCACAAAGCAUCUCU", "RBNS enrichment (R)": 2.02}
{"Strand": "ACCUAACUCAUCGUGUUUGCAUUCUUGUUAAGUUUUUUUGGCUUUGGAAUGUGACACAGCCUUUUUGAUCAUUUCUUUGAUGUGAAAAGCAUCUUUUGGUUAUCAGUUAA", "RBNS enrichment (R)": 0.45}
{"data": "Series 3", "target": "Centromere-binding protein 1, full length, N-terminal tag (CBF1, Saccharomyces cerevisiae, UniProt P17106, residues 1-351)", "method": "protein-binding microarray", "form": "double-stranded DNA, one strand shown", "medium": "in vitro", "tested at": "0.8 µM", "setting": "whole 60-bp probe, no competitor", "reading": "higher = stronger binding", "shared flanks, not repeated": "… GTCTTGATTCGCTTGACGCTGCTG", "UniProt P17106, sequence (whole entry, looked up)": "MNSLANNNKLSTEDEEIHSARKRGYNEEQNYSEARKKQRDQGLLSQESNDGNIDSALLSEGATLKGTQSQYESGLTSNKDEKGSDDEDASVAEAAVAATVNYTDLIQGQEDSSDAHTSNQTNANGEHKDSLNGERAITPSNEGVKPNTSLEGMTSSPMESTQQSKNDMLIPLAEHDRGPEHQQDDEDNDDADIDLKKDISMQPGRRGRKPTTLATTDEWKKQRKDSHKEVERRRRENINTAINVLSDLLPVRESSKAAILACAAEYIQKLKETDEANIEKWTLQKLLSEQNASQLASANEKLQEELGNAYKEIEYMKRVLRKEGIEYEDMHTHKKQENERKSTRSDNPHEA"}
{"Strand": "GAAAATATACGGTGTCACCTCCTACTTTTTCCTTAG", "fluorescence intensity [a.u.]": 493}
{"Strand": "GAAATTCCTAGTCTTTTCGTGAGTTCTTGATATTAG", "fluorescence intensity [a.u.]": 515}
{"Strand": "CTACGGTGGAGCATGCATGTGCTTACTAGAAGTTTC", "fluorescence intensity [a.u.]": 620}
{"Strand": "CTATATTCACAATGTGACACCAGATAGCTTGGTTTC", "fluorescence intensity [a.u.]": 667}
{"Strand": "CTATTTAGTGAACCCAACATCACGAATAAGAAATTC", "fluorescence intensity [a.u.]": 554}
{"Strand": "GAAATTCACATGCATCAGTTGAAAGGTATATAATAG", "fluorescence intensity [a.u.]": 691}
{"Strand": "CTATATTTAACGCGTCACCAAATATTAAGTTTGTTC", "fluorescence intensity [a.u.]": 500}
{"Strand": "GAATAAGTTTTCTGTCAGCTGACTGTCCACCAATAG", "fluorescence intensity [a.u.]": 5060}
{"Strand": "GAAAATACTGAGTGTCACGTTAATAATACGGATTAG", "fluorescence intensity [a.u.]": 1010}
{"Strand": "CTATGTTTTTTTCATCATGATATCTGTTTTAGGTTC", "fluorescence intensity [a.u.]": 610}
{"Strand": "CTAAAAAATTTCCCTCACGAGAATATGGAAATTTTC", "fluorescence intensity [a.u.]": 588}
{"Strand": "CTAGGTAGTCTAAAGAACGTGCATCAGAGAAGATTC", "fluorescence intensity [a.u.]": 812}
{"Strand": "CTATATCTAGTAACGCACGCTCTTTTGCAAAAATTC", "fluorescence intensity [a.u.]": 535}
{"Strand": "CTATGTAGTCCTCAACATGTGCAGACGAATAAATTC", "fluorescence intensity [a.u.]": 640}
{"Strand": "CTAATTTTTGTTTCCTTCGTGACTTCTTTTGCATTC", "fluorescence intensity [a.u.]": 645}
{"Strand": "CCTAACTACTATAATCAGGAGAAATAGCTTCGTACA", "fluorescence intensity [a.u.]": 512}
{"Strand": "CTAAAAAGAATTCATCACCTAAACTCACTAATCTTC", "fluorescence intensity [a.u.]": 463}
{"Strand": "CCTAACTACTATAAAGACGTGATATAGCTTCGTACA", "fluorescence intensity [a.u.]": 608}
{"Strand": "CTACTGGAAGAAAAACACATGACCAGAATGATATTC", "fluorescence intensity [a.u.]": 2720}
{"Strand": "GAATATCTCCATTGTACCGTGATTAAATAAAAATAG", "fluorescence intensity [a.u.]": 1010}
{"Strand": "TGTACGAAGCTATGTGACAATGATATAGTAGTTAGG", "fluorescence intensity [a.u.]": 571}
{"Strand": "GAATTTCGACCCCATTTCACGTGAATAAAGCGGTAG", "fluorescence intensity [a.u.]": 4420}
{"data": "Series 4", "target": "Fragile X messenger ribonucleoprotein 1, C-terminal low-complexity region (Fmr1, Mus musculus, UniProt P35922)", "method": "RNA Bind-n-Seq", "form": "RNA", "medium": "in vitro", "tested at": "200 nM", "setting": "whole 134-nt RNA, ends assumed", "with": "150 mM KCl", "baseline": "input library", "reading": "higher = stronger binding", "shared flanks, not repeated": "GGGAGUUCUACAGUCCGACGAUC … UGGAAUUCUCGGGUGUCAAGG"}
{"Strand": "AGUCCUGUGCUACACAUCGUAUGUACCGAAUCGGGGAAAGGGGUUUGGGGUUUGGGGAAAGUAUUAUGUUACGCCGUUCGGAUCUGCACU", "log2 enrichment": 0.939}
{"Strand": "AGUCCUGUGCUACACAUCGUAUGUACCGAAUCGGAAAAAGGGAAAAAGGGAAAAAGGGAAAGUAUUAUGUUACGCCGUUCGGAUCUGCAC", "log2 enrichment": -0.686}
{"Strand": "AGUCCUGUGCUACACAUCGUAUGUACCGAAUCGGGGUUUUUGGGUUUUUGGUUUUUGGAAAGUAUUAUGUUACGCCGUUCGGAUCUGCAC", "log2 enrichment": -0.358}
{"Strand": "UCCUGUGCUACACAUCGUAUGUACCGAAUCGGAAAAAAGGGAAAAAAGGGAAAAAAGGGGAAAGUAUUAUGUUACGCCGUUCGGAUCUGC", "log2 enrichment": -0.441}
{"Strand": "AGUCCUGUGCUACACAUCGUAUGUACCGAAUCGGGGCCCCCGGCCCCCGGGCCCCCGGAAAGUAUUAUGUUACGCCGUUCGGAUCUGCAC", "log2 enrichment": -0.694}
{"Strand": "UGUCAGGAUUAUGAAGAAGCUGUGCUCUUGCUGUUAGAAGGAGCUGCCUGGGAAGAAGCUUUGAGGCUGGUAAGAAUCUUGUAAAUCCUC", "log2 enrichment": -1.21}
{"Strand": "UCAAGUCCUGUGCUACACAUCGUAUGUACCGAAUCGGUUUUUGGAAAAAGGUGGAAAGUAUUAUGUUACGCCGUUCGGAUCUGCACUUCC", "log2 enrichment": -0.506}
{"Strand": "GUCCUGUGCUACACAUCGUAUGUACCGAAUCGGGAAAAAGGGAAAGGGUUUUUUUGGGAAAGUAUUAUGUUACGCCGUUCGGAUCUGCAC", "log2 enrichment": -0.401}
{"Strand": "CACAGUCAACACGCACCCACACAGACACAGAGGGAAGGGGUUGGGAUGGGGACAGGGUGCACAGCAGGGCGGGGUAGGACCCCAGCCCCU", "log2 enrichment": 1.36}
{"Strand": "UAACUUUAGAGGAGGAUCUGAUGGAUAUGGCAGUGGACGUGGAUUUGGGGAUGGCUAUAAUGGGUAUGGAGGAGGACCUGGGGGUGGCAA", "log2 enrichment": 0.0985}
{"Strand": "CAAGUCCUGUGCUACACAUCGUAUGUACCGAAUCGGUUUUUGGUUUUUUUGGAGGAAAGUAUUAUGUUACGCCGUUCGGAUCUGCACUUC", "log2 enrichment": -0.432}
{"Strand": "AGUCCUGUGCUACACAUCGUAUGUACCGAAUCGGGAAAGGGUUUUUGGGUUUUUGGGAAAGUAUUAUGUUACGCCGUUCGGAUCUGCACU", "log2 enrichment": 0.183}
{"Strand": "UCAAGUCCUGUGCUACACAUCGUAUGUACCGAAUCGGGCCCGGCCCGGCCCGGGAAAGUAUUAUGUUACGCCGUUCGGAUCUGCACUUCC", "log2 enrichment": -0.503}
{"Strand": "CUCAAGUCCUGUGCUACACAUCGUAUGUACCGAAUCGGGUUGGUUGGGGUUGGAAAGUAUUAUGUUACGCCGUUCGGAUCUGCACUUCCA", "log2 enrichment": 0.34}
{"note": "Excerpt of the above (series 1):"}
{"Strand": "ATACTTAG", "E-score": -0.105}
{"Strand": "AAATAGAT", "E-score": -0.204}
{"Strand": "CGTAAAAG", "E-score": 0.171}
{"Strand": "ATGGGAGA", "E-score": -0.31}
{"Strand": "ATCGTACC", "E-score": -0.0786}
{"Strand": "GTGATCAA", "E-score": -0.173}
{"Strand": "CGGCTTAG", "E-score": 0.251}
{"Strand": "AGCATAGG", "E-score": -0.124}
{"Strand": "CATGAAAC", "E-score": 0.0329}
{"Strand": "AGCTATAT", "E-score": -0.102}
{"Strand": "GCAGGCGC", "E-score": 0.272}
